{"data": "Assay results pooled from the literature", "note": "Lines come from different studies, so protocols differ. ± marks the error that the study gave."}
{"Compound": "CS(=O)(=O)CCCn1c(Cn2c(=O)n(C3CC3)c3ccncc32)nc2cc(Br)ccc21", "tested on": "Fusion glycoprotein F0, prefusion DS-Cav1 (Human respiratory syncytial virus A, UniProt P03420, I379V/M447V/S155C/S190F/S290C/V207L)", "test": "isothermal titration calorimetry", "system": "respiratory syncytial virus A2, PBS with 1% DMSO", "conditions": "25 °C", "measurement": "Kd", "value": "7.8 ± 7.4 nM"}
{"Compound": "Nc1ccc(N=Nc2cccc(F)c2F)c(N)c1", "tested on": "DNA repair protein REV1, C-terminal domain (Homo sapiens, UniProt Q9UBZ9)", "test": "microscale thermophoresis", "conditions": "cis-trans isomer mixture, together with: labelled DNA repair protein REV1 20 nM", "measurement": "Kd", "value": "18000 ± 4000 nM"}
{"Compound": "Nc1ccc2ccc(CCNCCCc3cccc(F)c3)cc2n1", "tested on": "Nitric oxide synthase oxygenase (Bacillus subtilis, UniProt O34453, I218V)", "test": "binding, imidazole displacement", "conditions": "pH 7.6, together with: 1 mM imidazole", "measurement": "Kd", "value": "18000 ± 2000 nM"}
{"Compound": "NCCNCCSc1ccccc1", "test": "spectrophotometry", "system": "phosphate buffers", "conditions": "mean of 9", "measurement": "pKa", "value": "5.95 ± 0.28"}
{"Compound": "CCCCCCCC/C=C\\CCCCCCCC(=O)OC[C@H](COP(=O)(O)OC[C@H](N)C(=O)O)OC(=O)CCCCCCC/C=C\\CCCCCCCC", "tested on": "Uncharacterized protein C11E3.02c, C2 domain (Schizosaccharomyces pombe, UniProt O13683)", "test": "liposome binding, liposome co-sedimentation", "conditions": "pH 7.4, 23 °C, together with: C2 domain 5 µM", "measurement": "Kd", "value": "~82000 nM"}
{"Compound": "Cc1ccccc1S(=O)(=O)Nc1cccc(C(=O)NC2CCN(c3ncnc4[nH]cnc34)CC2)c1", "tested on": "A549-ACE2", "conditions": "7.407 µM", "measurement": "viability", "value": "100%"}
{"Compound": "O=C(NCc1ccc2cc(CNCC34CC(F)(C3)C4)[nH]c2c1)c1cc(=O)n2ccccc2n1", "tested on": "N6-adenosine-methyltransferase catalytic subunit (METTL3, Homo sapiens, UniProt Q86U44)", "test": "binding, surface plasmon resonance", "measurement": "Kd", "value": "0.022 nM"}
{"Compound": "Cc1nc2c[nH]c(/C=C/C=C/c3ccc(N(C)C)cc3)cn-2c1=O", "tested on": "Alpha-synuclein, amplified patient brain aggregates (SNCA, Homo sapiens, UniProt P37840)", "test": "binding", "measurement": "Kd", "value": "1120 nM"}
{"Compound": "C[C@H](CS)C(=O)N[C@H](Cc1c[nH]c2ccccc12)C(=O)O", "tested on": "Escherichia coli", "system": "IMP-1 producing", "conditions": "25 µM, together with: meropenem", "measurement": "MIC of meropenem", "value": "8 µg/mL"}
{"Compound": "Cc1cn(-c2cc(NC(=O)c3ccc(C)c(Nc4nc(-c5cccnc5)nc5c4cnn5C)c3)cc(C(F)(F)F)c2)cn1", "tested on": "Ephrin type-A receptor 2 (EPHA2, Homo sapiens, UniProt P29317)", "test": "binding, microscale thermophoresis", "system": "kinase domain", "conditions": "25 °C, 5% DMSO", "measurement": "Kd", "value": "33 nM"}
{"Compound": "CN1CCN(c2ccc(-c3cccc(CN4CCN(CCNC(=O)CCCCCCCNc5cccc6c5C(=O)N(C5CCC(=O)NC5=O)C6=O)CC4)c3)cc2NC(=O)c2c[nH]c(=O)cc2C(F)(F)F)CC1 (stereo not shown)", "tested on": "Protein cereblon, thalidomide-binding domain (CRBN, Homo sapiens, UniProt Q96SW2)", "test": "binding, isothermal titration calorimetry", "system": "thalidomide-binding domain", "conditions": "25 °C", "measurement": "Kd", "value": "14800 ± 1300 nM"}
{"Compound": "CC(C)(COP(=O)(O)OP(=O)(O)OC[C@H]1O[C@@H](n2cnc3c(N)ncnc32)[C@H](O)[C@@H]1OP(=O)(O)O)[C@@H](O)C(=O)NCCC(=O)NCCSCC(N)=O", "tested on": "gltA, with oxaloacetate (Thermoplasma acidophilum, UniProt P21553)", "test": "binding, CD titration", "conditions": "pH 8, 20 °C", "measurement": "Kd", "value": "1780 ± 30 nM"}
{"Compound": "C=CC(c1ccc(-c2ccc(OC)c(C)c2)cc1)n1ccnc1 (single isomer, unassigned)", "tested on": "Mycocyclosin synthase (cyp121, Mycobacterium tuberculosis, UniProt P9WPP7)", "conditions": "enantiomer E2", "measurement": "Kd", "value": "2600 nM"}
{"Compound": "O=C(NS(=O)(=O)OC[C@H]1O[C@@H](n2cnc3c(NCc4ccccc4)ncnc32)[C@H](O)[C@@H]1O)c1ccccc1O", "tested on": "Enterobactin synthase component E (Escherichia coli K-12, UniProt P10378)", "test": "binding", "system": "Escherichia coli", "measurement": "Kd", "value": "733 ± 45 nM"}
{"Compound": "O=C(NC1CCN(c2ncnc3[nH]cnc23)CC1)c1cccc(NS(=O)(=O)c2ccc([N+](=O)[O-])cc2)c1", "tested on": "A549-ACE2", "conditions": "0.03048 µM", "measurement": "viability", "value": "107%"}
{"Compound": "Nc1nc2c(ncn2[C@H]2C[C@H](O)[C@@H](COP(=O)(O)OCCCNC(=O)c3cccc(-c4cccc(Br)c4)c3)O2)c(=O)[nH]1", "tested on": "Deoxynucleoside triphosphate triphosphohydrolase SAMHD1, A1 site (SAMHD1, Homo sapiens, UniProt Q9Y3Z3)", "test": "binding at allosteric site A1, fluorescence anisotropy competition", "conditions": "1 µM protein", "measurement": "Kd", "value": "5000 ± 1200 nM"}
{"Compound": "COC(=O)C(CC(=O)c1ccc(Cl)cc1)SCCNC(=O)CCNC(=O)[C@H](O)C(C)(C)COP(=O)(O)OP(=O)(O)OC[C@H]1O[C@@H](n2cnc3c(N)ncnc32)[C@H](O)[C@@H]1OP(=O)(O)O (stereo partly shown)", "tested on": "1,4-dihydroxy-2-naphthoyl-CoA synthase (menB, Staphylococcus aureus, UniProt Q5HH38)", "test": "isothermal titration calorimetry", "conditions": "22 °C", "measurement": "Kd", "value": "2800 ± 700 nM"}
{"Compound": "Cc1ccc(C(=O)Nc2cc(Cl)ccc2C(=O)O)cc1S(=O)(=O)Nc1ccc(Cl)c(Cl)c1", "tested on": "Replication protein A 70 kDa DNA-binding subunit, N-terminal domain (RPA1, Homo sapiens, UniProt P27694)", "test": "binding, fluorescence polarisation competition", "conditions": "together with: FITC-ATRIP probe", "measurement": "Kd", "value": "4000 ± 1000 nM"}
{"Compound": "COc1ccc(CN[C@@H]2CO[C@H](C(c3ccccc3)c3ccccc3)C[C@H]2O)cc1", "tested on": "Alpha-1A adrenergic receptor (ADRA1A, Homo sapiens, UniProt P35348)", "test": "radioligand binding", "conditions": "10 µM, together with: [3H]prazosin", "measurement": "inhibition", "value": "51.6%"}
{"note": "Some of these lines once more:"}
{"Compound": "CCCCCCCC/C=C\\CCCCCCCC(=O)OC[C@H](COP(=O)(O)OC[C@H](N)C(=O)O)OC(=O)CCCCCCC/C=C\\CCCCCCCC", "tested on": "Uncharacterized protein C11E3.02c, C2 domain (Schizosaccharomyces pombe, UniProt O13683)", "test": "liposome binding, liposome co-sedimentation", "conditions": "pH 7.4, 23 °C, together with: C2 domain 5 µM", "measurement": "Kd", "value": "~82000 nM"}
